Published values gathered from unrelated publications.
Each numbered part is a random draw from the data of one study; scales do not carry over between parts.
UniProt Q8N5S9, sequence (whole entry, looked up): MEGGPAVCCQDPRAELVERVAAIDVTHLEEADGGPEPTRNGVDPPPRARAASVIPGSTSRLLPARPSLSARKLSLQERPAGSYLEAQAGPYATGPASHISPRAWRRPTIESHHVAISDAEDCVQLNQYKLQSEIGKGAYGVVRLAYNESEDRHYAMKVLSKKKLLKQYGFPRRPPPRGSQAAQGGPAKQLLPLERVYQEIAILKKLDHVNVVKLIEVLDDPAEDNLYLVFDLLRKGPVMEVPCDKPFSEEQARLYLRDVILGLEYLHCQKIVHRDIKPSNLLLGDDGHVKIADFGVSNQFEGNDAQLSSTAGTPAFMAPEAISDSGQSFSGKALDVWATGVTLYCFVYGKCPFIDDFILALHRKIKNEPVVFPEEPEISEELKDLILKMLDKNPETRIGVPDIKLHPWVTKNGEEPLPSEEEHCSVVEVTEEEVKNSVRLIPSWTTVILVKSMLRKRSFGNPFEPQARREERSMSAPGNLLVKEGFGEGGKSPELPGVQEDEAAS
UniProt Q9H093, sequence (whole entry, looked up): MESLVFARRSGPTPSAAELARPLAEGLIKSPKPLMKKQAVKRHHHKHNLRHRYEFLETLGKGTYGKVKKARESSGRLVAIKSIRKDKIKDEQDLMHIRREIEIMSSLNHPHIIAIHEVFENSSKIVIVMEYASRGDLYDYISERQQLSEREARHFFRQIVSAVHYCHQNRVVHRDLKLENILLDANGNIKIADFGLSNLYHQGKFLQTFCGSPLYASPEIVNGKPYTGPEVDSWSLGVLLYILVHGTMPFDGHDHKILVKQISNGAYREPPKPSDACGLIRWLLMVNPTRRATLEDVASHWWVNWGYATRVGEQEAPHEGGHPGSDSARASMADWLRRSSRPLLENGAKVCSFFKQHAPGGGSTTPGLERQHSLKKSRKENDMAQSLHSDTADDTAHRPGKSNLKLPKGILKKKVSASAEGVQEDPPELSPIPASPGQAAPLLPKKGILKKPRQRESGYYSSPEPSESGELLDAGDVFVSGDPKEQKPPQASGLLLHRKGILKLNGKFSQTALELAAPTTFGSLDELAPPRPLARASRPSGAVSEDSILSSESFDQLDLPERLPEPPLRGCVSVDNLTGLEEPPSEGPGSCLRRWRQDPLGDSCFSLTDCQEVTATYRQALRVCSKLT
UniProt O95747, sequence (whole entry, looked up): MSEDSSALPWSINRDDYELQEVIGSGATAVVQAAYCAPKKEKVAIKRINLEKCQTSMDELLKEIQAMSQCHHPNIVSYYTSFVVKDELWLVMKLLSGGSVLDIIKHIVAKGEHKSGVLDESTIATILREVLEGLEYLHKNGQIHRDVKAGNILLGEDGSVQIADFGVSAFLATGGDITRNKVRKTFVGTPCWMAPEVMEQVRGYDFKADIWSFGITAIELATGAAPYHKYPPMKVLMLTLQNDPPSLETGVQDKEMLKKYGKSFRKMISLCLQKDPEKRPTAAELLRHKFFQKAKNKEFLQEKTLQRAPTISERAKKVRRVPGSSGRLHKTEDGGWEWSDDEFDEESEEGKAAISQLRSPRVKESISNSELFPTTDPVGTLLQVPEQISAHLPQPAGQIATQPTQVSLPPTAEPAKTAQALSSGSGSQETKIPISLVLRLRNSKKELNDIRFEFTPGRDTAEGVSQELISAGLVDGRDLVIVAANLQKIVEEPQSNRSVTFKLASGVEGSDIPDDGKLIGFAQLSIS
UniProt O96013, sequence (whole entry, looked up): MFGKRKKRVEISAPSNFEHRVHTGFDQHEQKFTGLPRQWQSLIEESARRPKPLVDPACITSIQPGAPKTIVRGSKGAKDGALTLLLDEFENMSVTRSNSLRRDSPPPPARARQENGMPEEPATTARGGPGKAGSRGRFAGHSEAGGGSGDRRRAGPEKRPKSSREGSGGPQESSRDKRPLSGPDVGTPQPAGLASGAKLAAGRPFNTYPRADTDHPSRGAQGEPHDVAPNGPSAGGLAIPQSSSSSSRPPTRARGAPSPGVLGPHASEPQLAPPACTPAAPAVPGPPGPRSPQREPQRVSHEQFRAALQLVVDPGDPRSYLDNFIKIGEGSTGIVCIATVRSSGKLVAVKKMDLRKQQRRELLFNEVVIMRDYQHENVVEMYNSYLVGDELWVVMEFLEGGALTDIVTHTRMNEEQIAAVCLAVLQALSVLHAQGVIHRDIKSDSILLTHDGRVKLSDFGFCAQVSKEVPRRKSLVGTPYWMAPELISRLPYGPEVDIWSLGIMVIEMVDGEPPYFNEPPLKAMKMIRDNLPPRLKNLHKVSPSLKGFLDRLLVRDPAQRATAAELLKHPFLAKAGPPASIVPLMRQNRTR
UniProt P08922, sequence (whole entry, looked up): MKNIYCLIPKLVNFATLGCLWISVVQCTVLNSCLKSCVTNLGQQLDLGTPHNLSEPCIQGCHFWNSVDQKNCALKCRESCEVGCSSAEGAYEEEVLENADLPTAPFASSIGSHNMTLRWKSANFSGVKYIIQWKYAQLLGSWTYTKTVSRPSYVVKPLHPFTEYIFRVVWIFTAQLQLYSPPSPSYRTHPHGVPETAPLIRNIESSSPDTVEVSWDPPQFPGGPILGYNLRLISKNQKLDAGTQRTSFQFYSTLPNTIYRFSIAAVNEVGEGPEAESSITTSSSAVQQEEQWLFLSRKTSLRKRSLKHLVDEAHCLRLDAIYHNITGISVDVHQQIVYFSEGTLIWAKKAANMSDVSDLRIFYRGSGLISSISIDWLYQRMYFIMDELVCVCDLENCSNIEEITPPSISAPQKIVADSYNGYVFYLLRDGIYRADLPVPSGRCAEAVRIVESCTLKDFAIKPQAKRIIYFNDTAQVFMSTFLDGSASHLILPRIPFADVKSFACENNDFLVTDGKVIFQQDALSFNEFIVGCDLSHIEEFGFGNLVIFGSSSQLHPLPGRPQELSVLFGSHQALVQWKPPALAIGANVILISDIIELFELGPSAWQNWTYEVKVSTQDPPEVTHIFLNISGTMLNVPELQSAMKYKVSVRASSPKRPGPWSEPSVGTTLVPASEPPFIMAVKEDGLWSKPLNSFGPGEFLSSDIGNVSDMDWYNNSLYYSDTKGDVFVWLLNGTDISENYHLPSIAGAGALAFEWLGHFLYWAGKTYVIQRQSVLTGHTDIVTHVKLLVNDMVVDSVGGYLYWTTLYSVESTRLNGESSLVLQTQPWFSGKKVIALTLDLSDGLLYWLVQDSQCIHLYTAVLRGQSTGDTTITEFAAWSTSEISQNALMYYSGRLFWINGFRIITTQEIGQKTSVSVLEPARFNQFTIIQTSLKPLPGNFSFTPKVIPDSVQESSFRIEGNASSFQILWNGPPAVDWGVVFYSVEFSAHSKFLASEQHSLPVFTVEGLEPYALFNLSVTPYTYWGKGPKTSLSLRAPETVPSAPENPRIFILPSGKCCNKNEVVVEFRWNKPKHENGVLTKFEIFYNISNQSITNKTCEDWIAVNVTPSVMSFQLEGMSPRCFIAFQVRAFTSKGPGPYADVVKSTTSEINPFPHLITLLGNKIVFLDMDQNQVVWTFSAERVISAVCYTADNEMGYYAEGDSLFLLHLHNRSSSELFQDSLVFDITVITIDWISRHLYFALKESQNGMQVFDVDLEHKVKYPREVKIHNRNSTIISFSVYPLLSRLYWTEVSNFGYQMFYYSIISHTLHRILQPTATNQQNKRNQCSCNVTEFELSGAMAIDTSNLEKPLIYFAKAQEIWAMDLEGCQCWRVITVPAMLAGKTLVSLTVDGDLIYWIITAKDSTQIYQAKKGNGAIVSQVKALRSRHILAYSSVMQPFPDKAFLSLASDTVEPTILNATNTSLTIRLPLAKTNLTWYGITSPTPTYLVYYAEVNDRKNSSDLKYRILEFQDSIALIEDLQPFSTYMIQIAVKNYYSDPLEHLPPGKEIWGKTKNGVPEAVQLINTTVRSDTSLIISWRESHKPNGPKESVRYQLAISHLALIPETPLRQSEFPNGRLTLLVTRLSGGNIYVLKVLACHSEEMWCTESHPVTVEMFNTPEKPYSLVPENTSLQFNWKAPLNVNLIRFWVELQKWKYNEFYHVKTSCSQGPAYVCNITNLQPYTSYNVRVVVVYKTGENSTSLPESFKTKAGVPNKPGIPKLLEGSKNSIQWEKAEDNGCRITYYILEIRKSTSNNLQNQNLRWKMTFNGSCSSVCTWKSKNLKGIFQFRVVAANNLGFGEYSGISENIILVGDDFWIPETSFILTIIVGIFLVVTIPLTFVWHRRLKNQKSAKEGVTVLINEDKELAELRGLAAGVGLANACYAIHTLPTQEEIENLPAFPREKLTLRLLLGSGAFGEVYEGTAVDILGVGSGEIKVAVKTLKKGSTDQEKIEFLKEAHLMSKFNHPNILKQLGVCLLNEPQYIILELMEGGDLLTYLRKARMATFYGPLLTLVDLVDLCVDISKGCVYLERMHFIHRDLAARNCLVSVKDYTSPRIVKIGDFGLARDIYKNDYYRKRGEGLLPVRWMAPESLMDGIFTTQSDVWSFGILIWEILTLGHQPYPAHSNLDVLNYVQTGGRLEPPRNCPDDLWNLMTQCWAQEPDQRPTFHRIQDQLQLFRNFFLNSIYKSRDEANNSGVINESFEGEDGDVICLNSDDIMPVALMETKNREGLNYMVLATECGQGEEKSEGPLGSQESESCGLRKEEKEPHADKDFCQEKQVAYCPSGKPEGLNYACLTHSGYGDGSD
UniProt O15264, sequence (whole entry, looked up): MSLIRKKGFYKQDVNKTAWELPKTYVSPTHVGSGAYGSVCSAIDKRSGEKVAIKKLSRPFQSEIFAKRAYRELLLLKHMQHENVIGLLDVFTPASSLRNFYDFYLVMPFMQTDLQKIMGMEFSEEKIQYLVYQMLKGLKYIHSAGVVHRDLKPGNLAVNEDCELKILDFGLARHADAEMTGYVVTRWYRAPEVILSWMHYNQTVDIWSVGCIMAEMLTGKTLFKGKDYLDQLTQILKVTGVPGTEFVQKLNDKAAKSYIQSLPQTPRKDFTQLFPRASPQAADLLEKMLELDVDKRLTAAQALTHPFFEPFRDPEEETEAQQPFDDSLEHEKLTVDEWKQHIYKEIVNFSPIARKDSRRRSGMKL

Set 1
SMILES: O=C1CCc2cc(Nc3cc(OC4CCOCC4)c([N+](=O)[O-])cc3Cl)ccc2N1
Technique: competition with immobilised ligand
Tested at: 1 µM
Measurement: remaining binding
STK25 (Homo sapiens, UniProt O00506); cell-free assay: 100%
TIE1 (Homo sapiens, UniProt P35590); cell-free assay: 100%
OXSR1 (Homo sapiens, UniProt O95747); cell-free assay: 83%
MAP2K5 (Homo sapiens, UniProt Q13163); cell-free assay: 100%
MAP3K10 (Homo sapiens, UniProt Q02779); cell-free assay: 94%
PHKG1 (Homo sapiens, UniProt Q16816); cell-free assay: 100%
Tyrosine-protein kinase ABL1, phosphorylated (ABL1, Homo sapiens, UniProt P00519, E255K); binding: 88%
PDPK1 (Homo sapiens, UniProt O15530); cell-free assay: 100%
CAMKK1 (Homo sapiens, UniProt Q8N5S9); cell-free assay: 100%
MAPK13 (Homo sapiens, UniProt O15264); cell-free assay: 100%
NUAK2 (Homo sapiens, UniProt Q9H093); cell-free assay: 89%
PAK4 (Homo sapiens, UniProt O96013); cell-free assay: 100%
ROS1 (Homo sapiens, UniProt P08922); cell-free assay: 100%

Set 2
Target: Histone acetyltransferase KAT6A, winged helix 1, GST fusion (KAT6A, Homo sapiens, UniProt Q92794, residues 1-85)
Technique: protein binding microarray
Molecule type: double-stranded DNA, one strand shown
Medium: in vitro
Tested at: not given
Setting: 8-mer, flanks averaged, mean of 2 arrays, mostly near background
Reference: not given
Direction: higher = stronger binding
Measurement: E-score
Construct (chain): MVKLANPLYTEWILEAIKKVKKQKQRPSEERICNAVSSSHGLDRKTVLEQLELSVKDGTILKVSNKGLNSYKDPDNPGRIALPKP
CGAATCAC: -0.0804
AGTGTAAC: -0.14
GAGCAATA: -0.195
ACACTACA: -0.143
TAAGTCAA: -0.214
GCCCTCTA: 0.00615
GGTTTAAC: 0.0446
ACAGGAGT: -0.162

Set 3
Target: Calcium/calmodulin-dependent protein kinase kinase 1 (CAMKK1, Homo sapiens, UniProt Q8N5S9)
Effect on: enzyme activity
Action: inhibitor
Tested at: 0.5 µM
Reference: control
Measurement: remaining activity
c1ccc(-c2cnc(Nc3ccc(OCCN4CCCC4)cc3)s2)cc1: 56.6%
O=c1cc(-c2cccc3c2Sc2ccccc2S3)oc(N2CCOCC2)c1: 112%
CCN(CC)C(=O)c1ccc(Nc2nc(OCC3CCCCC3)c3[nH]cnc3n2)cc1: 96.8%
Ic1cccc(CSc2nnc(-c3ccncc3)o2)c1: 124%
O=C(Nc1cccc(Nc2nccc(Nc3cccc(C(F)(F)F)c3)n2)c1)C1CC1: 97.9%
CCN(CC)CCNC(=O)c1c(C)[nH]c(/C=C2\C(=O)Nc3ccc(F)cc32)c1C: 52.1%
C[C@@H]1CCN(C(=O)CC#N)C[C@@H]1N(C)c1ncnc2[nH]ccc12: 101%
Cc1nc2cc3nc(-c4cccs4)cnc3cc2n1C: 127%

Other studies, line by line
CCC[C@@H]1NC(=O)CSC[C@@H](C(=O)OCC)N(C)C(=O)[C@H](CC(C)C)NC(=O)[C@H](C)N(C)C(=O)[C@H](CC(C)C)NC(=O)[C@H](C)N(C)C(=O)[C@H]2CCCN2C(=O)[C@H](CC(C)C)NC(=O)CN(C)C1=O  logD (hydrocarbon/water): 1.45

Excerpt of the above (set 2):
CGAATCAC: -0.0804
AGTGTAAC: -0.14
GAGCAATA: -0.195
